Published values pooled from the literature.
Compare with care: the assays were run in different laboratories. Numbers after ± are the reported error.

O=C(CSc1nnc(-c2ccc(NC(=O)c3cccnc3)cc2)o1)Nc1ccc(F)cc1
IC50 (RAW264.7; TNF-α release, inhibitor, ELISA; LPS-stimulated): 3.37 µM

Cn1c(=O)c(/C=C/c2ccccc2Br)nc2ccccc21
IC50 (HeLa 229; cell growth or viability, MTT; 72 h): 27.5 µM

Cc1cn(-c2cc(NC(=O)c3ccc(C)c(Nc4nccc(-c5cccnc5)n4)c3)cc(C(F)(F)F)c2)cn1
IC50 (GIST882; cell growth or viability, resazurin; 72 h): 0.1 µM

O=C(O)Cc1ccccc1Nc1c(Cl)cccc1Cl
IC50 (RAW264.7; reactive oxygen species, inhibitor, fluorescence; LPS-stimulated): 25.4 µM

CC(C)C[C@H]1NC(=O)[C@H](CC(=O)O)NC(=O)CNC(=O)[C@H](CCCNC(=N)N)NC(=O)[C@H](C)NC1=O
IC50 (WM-115; cell adhesion, inhibitor; 1 h, with: immobilized CagL Q40A mutant): 1.65 µM

CC(C)Oc1ccc(C(=O)Cn2ccnc2)cc1-n1c(CN2CCN(C(=O)COc3ccc(Cl)cc3)CC2)nc2ccccc2c1=O
IC50 (SU-DHL-2; cell viability, CellTiter-Glo; 24 h): < 0.1 µM

CCN1C(=O)C(n2nc(-c3c(O)c4ccccc4oc3=O)cc2-c2ccc(Cl)cc2)c2cc(Cl)ccc21 (centres unmarked)
IC50 (A-375; cell growth or viability, SRB; 72 h): 7.32 µM

C=CCN(CC=C)C(=S)[S][Sn]([S]C(=S)N(CC=C)CC=C)([c]1ccccc1)[c]1ccccc1
IC50 (WIL2-NS; cell growth or viability, MTT): 1.2 µM

O=c1[nH]nc(-c2nnc(SCNC3CCCCC3)o2)c2ccccc12
IC50 (WI-38; cell growth or viability, MTT; 48 h): 49.2 µM

Oc1ccc(/C=C/c2ccccc2)cc1O
IC50 (HL-60; reactive oxygen species, inhibitor, fluorescence): 20 µg/mL

Cc1ccc(C#Cc2cccc(-c3nn(-c4nc(C(=O)O)cs4)c(C(C4CC4)C4CC4)c3Cc3ccc(S(N)(=O)=O)c(F)c3)c2)s1
IC50 (MIA PaCa-2; cell growth or viability; 48 h): 20.9 µM

CCCCCCCCCCCCCCCCCC(=O)O[C@H](COC(=O)Cc1c(C)n(C(=O)c2ccc(Cl)cc2)c2ccc(OC)cc12)COP(=O)([O-])OCC[N+](C)(C)C
IC50 (MCF-10A; cell growth or viability, SRB; 72 h): 305 µM

CC(C)c1ncccc1OS(=O)(=O)c1ccc(NC(=O)NCCCl)cc1
IC50 (MOLM-13; cell growth or viability, MTT; 48 h): 2.8 µM

CNC(=O)c1cc(Oc2ccc(NC(=O)Nc3ccc(Cl)c(C(F)(F)F)c3)cc2)ccn1
IC50 (MHCC97H with NICD overexpression; cell viability, MTT): 4.88 µM

COc1cccc(/C=C/c2ccc(O)cc2)c1
IC50 (HL-60; ROS generation, inhibitor, DCFH-DA; with: PMA): > 25 µg/mL

O=C1Nc2ccc(Br)cc2C1n1nc(-c2c(O)c3ccccc3oc2=O)cc1-c1ccc(Cl)cc1 (centres unmarked)
IC50 (A-375; cell growth or viability, SRB; 72 h): 6.18 µM

Cc1ccc(-c2cc(C(F)(F)F)nn2-c2ccc(S(N)(=O)=O)cc2)cc1
IC50 (RAW264.7; TNF-α release, inhibitor, ELISA; LPS-stimulated): 5.55 µM

O=C1C(=Cc2ccccc2)CN(C(=O)c2ccccc2C(=O)N2CC(=Cc3ccccc3)C(=O)C(=Cc3ccccc3)C2)CC1=Cc1ccccc1
IC50 (CEM T-lymphocytes; cell proliferation; 3 d): 1.45 ± 0.85 µM

O=c1[nH]c2ccccc2nc1/C=C/c1ccccn1
IC50 (HeLa 229; cell growth or viability, MTT; 72 h): 2.89 µM

O=c1[nH]cc(F)c(=O)[nH]1
IC50 (BXPC-3; cell growth or viability, MTT; 72 h): 12.7 µM

CC(=NN=C(N)[S-])C(C)=NN=C(N)[S-].N.N.O=[N+]([O-])[O-].[Co+3]
IC50 (A549; cell viability, MTT; 24 h hypoxic, 48 h normoxic, hypoxic treatment): > 500 µM

Cc1ncsc1-c1ccc(CNC(=O)[C@@H]2C[C@@H](O)CN2C(=O)[C@@H](NC(=O)C2(F)CC2)C(C)(C)C)c(OCCOc2ccc(CN3CCN(c4cc(-c5ccccc5O)nnc4N)CC3)cc2)c1
IC50 (NCI-H1568 SMARCA4-deficient; cell growth, CellTiter-Glo; 168 h): 0.068 µM

C=C1C[C@H](O)[C@H](Br)C(C)(C)[C@@]12CCC(C)=C(Cl)C2
IC50 (NIH/3T3 eIF4A1 knockdown; cell viability; 5 days): 2.38 µM

Excerpt of the above:
COc1cccc(/C=C/c2ccc(O)cc2)c1
IC50 (HL-60; ROS generation, inhibitor, DCFH-DA; with: PMA): > 25 µg/mL

O=C1Nc2ccc(Br)cc2C1n1nc(-c2c(O)c3ccccc3oc2=O)cc1-c1ccc(Cl)cc1 (centres unmarked)
IC50 (A-375; cell growth or viability, SRB; 72 h): 6.18 µM
